Results collected from several papers.
Compare with care: the assays were run in different laboratories. ± marks the error that the study gave.
folP: Dihydropteroate synthase (folP, Bacteria, UniProt P0AC13)
Chain of UniProt P0AC13 (whole entry, looked up): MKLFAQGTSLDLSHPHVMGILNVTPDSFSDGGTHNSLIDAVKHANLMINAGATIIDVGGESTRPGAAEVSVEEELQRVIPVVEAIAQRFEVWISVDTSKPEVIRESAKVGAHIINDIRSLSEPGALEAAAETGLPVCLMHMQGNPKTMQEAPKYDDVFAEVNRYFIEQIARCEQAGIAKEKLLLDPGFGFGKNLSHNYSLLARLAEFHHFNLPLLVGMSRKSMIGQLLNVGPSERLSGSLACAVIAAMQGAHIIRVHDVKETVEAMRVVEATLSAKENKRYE
Chain of UniProt Q9SZU7 (whole entry, unmodified, looked up): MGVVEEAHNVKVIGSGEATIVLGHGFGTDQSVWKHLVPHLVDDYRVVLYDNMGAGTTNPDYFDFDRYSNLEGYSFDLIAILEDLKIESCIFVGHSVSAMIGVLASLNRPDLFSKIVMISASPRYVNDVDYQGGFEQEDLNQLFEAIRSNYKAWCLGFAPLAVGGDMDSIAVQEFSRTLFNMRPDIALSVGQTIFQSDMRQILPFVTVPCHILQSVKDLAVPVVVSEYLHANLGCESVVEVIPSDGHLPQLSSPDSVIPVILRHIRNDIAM
Chain of UniProt P35030 (whole entry, unmodified, looked up): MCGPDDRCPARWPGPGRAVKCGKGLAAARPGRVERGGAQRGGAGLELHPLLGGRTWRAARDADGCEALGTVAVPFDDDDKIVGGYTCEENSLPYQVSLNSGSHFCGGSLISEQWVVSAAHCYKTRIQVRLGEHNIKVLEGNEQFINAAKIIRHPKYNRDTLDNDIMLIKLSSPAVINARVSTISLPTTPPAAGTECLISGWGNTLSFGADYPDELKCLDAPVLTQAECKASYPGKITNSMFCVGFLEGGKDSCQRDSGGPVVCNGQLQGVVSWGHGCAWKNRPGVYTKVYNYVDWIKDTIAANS
Chain of UniProt P20782 (whole entry, looked up): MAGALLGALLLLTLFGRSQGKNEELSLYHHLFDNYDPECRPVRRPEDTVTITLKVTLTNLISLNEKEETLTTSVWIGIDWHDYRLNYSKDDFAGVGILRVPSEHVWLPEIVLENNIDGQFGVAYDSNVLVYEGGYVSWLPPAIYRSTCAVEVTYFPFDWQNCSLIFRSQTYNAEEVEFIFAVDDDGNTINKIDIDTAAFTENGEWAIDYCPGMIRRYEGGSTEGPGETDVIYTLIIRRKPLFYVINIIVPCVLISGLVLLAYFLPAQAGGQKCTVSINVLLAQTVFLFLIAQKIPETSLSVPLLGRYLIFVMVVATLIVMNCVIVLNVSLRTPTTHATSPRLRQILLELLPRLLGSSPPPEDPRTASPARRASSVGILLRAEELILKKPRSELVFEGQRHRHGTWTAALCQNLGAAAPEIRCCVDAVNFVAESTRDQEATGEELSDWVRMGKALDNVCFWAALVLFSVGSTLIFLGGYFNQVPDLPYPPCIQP
Chain of UniProt P04756 (whole entry, looked up): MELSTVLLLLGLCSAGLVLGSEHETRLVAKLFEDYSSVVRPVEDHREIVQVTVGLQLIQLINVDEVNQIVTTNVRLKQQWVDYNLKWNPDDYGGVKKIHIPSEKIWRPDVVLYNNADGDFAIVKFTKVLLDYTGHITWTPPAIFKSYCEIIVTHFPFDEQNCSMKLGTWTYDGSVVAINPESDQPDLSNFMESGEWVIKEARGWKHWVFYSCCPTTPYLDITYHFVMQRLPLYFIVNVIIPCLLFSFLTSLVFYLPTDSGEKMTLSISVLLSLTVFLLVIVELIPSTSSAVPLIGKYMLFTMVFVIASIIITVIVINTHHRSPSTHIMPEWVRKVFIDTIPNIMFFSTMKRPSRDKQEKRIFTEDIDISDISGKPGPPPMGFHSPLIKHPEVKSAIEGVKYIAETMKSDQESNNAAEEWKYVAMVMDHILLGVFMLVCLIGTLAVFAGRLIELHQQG
Chain of UniProt Q15835 (whole entry, looked up): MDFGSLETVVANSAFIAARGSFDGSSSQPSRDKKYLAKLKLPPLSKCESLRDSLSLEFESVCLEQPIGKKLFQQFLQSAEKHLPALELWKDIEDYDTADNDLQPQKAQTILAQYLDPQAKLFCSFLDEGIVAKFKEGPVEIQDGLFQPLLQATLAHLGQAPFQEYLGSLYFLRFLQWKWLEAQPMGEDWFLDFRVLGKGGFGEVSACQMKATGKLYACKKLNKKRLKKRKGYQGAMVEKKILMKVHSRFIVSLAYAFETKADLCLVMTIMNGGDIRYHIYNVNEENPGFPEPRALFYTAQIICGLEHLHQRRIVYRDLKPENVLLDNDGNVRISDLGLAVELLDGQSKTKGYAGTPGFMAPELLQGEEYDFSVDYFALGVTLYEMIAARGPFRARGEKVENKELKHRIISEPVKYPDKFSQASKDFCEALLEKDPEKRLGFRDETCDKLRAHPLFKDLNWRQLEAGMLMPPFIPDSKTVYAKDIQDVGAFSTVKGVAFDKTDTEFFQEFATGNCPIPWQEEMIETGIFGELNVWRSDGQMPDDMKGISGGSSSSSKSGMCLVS
Chain of UniProt P39748 (whole entry, unmodified, looked up): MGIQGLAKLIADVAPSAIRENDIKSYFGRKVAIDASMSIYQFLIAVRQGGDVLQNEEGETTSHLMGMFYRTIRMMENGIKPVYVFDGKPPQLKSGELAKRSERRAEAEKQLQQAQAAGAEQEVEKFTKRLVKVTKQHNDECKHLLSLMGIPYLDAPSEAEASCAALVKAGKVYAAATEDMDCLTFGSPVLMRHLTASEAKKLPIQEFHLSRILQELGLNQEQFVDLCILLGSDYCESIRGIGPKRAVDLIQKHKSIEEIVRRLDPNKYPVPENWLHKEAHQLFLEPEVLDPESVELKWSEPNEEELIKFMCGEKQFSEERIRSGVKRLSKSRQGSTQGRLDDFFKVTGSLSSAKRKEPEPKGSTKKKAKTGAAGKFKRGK
Chain of UniProt Q9Y6M5 (whole entry, looked up): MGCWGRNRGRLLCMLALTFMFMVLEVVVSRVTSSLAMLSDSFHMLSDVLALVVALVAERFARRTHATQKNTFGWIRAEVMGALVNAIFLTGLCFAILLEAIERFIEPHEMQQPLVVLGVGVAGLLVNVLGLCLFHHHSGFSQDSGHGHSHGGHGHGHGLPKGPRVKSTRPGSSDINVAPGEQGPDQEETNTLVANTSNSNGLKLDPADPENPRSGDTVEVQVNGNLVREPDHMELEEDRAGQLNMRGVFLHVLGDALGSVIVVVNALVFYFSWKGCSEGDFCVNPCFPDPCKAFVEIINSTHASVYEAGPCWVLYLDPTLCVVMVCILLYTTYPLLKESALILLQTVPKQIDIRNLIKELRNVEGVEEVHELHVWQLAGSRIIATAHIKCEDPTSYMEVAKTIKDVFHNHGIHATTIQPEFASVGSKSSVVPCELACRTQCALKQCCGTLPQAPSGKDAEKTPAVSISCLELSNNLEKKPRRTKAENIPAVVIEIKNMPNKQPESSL
Chain of UniProt P02716 (whole entry, looked up): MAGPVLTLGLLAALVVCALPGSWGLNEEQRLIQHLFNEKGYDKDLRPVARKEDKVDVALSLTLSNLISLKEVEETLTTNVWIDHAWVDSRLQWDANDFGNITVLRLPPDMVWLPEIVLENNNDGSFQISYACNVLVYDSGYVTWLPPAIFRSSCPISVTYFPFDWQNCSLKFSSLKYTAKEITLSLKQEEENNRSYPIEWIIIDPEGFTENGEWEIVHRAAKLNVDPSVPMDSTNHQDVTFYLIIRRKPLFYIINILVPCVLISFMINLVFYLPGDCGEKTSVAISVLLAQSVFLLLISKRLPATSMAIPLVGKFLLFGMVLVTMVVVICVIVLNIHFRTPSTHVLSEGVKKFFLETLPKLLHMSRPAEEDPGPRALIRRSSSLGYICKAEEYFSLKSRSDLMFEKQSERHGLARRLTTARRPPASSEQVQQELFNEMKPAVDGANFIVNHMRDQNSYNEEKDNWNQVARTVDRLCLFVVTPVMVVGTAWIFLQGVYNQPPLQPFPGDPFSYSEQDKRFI

| SMILES | target or system | assay | system | setting | how to read | measurement | result |
| --- | --- | --- | --- | --- | --- | --- | --- |
| C[N+]1(C)CCCC1 | Chrnd/Chrna1/Chrne (Mus musculus, UniProt P02716+P04756+P20782) | single-channel kinetics | – | wild-type receptor | – | Kd | 2100 µM |
| NCCCC[C@H](NC(=O)[C@H](C/C=C/C[C@H](NC(=O)[C@@H]1CCCN1)C(=O)N[C@@H](CCCCN)C(=O)NCCCN)NC(=O)[C@@H]1CCCN1)C(=O)NCCCN | (CAG)10 RNA | SPR | – | – | – | Kd | 0.273 µM |
| Cc1ncsc1-c1ccc(C(C)NC(=O)C2CC(O)CN2C(=O)C(NC(=O)CCCCCCCCCCN2CCCC(Nc3ncc(Cl)c(Nc4ccccc4S(=O)(=O)C(C)C)n3)C2)C(C)(C)C)cc1 (stereo not shown) | 22Rv1 | RNA-seq, refers to: ZBTB24 mRNA | – | concentration not given | baseline: DMSO | log2 fold change | -1.06 |
| CCCCCCCC[C@H](NC(=O)[C@@H]1CSC([C@@H](N)[C@@H](C)CC)=N1)C(=O)N[C@H](CCC(=O)O)C(=O)N[C@H](C(=O)N[C@H]1CCCCNC(=O)[C@H](CC(N)=O)NC(=O)[C@@H](CC(=O)O)NC(=O)[C@H](Cc2c[nH]cn2)NC(=O)[C@@H](Cc2ccccc2)NC(=O)[C@H]([C@@H](C)CC)NC(=O)[C@@H](CCCN)NC1=O)[C@@H](C)CC | undecaprenyl pyrophosphate | binding, isothermal titration calorimetry | phosphatidylcholine lipid vesicles | pH 7.5, 25 °C, 0.3 mM zinc sulfate | – | Kd | 0.0116 ± 0.00932 µM |
| Cn1nc(CCC(=O)O)c(=O)c2c(=O)[nH]c(N)nc21 | folP | binding, SPR | – | – | – | Kd | 0.00727 µM |
| Cc1nc(-c2c[nH]c(C(=O)Nc3ncccc3O)c2)cs1 | Trypsin-3 (Homo sapiens, UniProt P35030, H275D) | enzyme activity, inhibitor, mixed model kinetics | – | – | – | Ki | 53.9 µM |
| O=c1c2sccc2n(CC2COc3ccccc3O2)c(=O)n1O (stereo not shown) | Flap endonuclease 1 (Homo sapiens, UniProt P39748, R100A) | ITC | – | pH 7.5, 25 °C, together with: 8 mM Mg2+ | – | Kd | 0.117 µM |
| Cn1nnnc1NCc1nn(C)c2nc(N)[nH]c(=O)c2c1=O | folP | binding, SPR | – | – | – | Kd | 0.0217 µM |
| Cn1cncc1C1=CN(c2ncnc3[nH]cnc23)CCS1(=O)=O | PRKACA (Homo sapiens, UniProt P17612) | binding | – | – | – | Kd | > 200 µM |
| C=C(NC(=O)c1csc(-c2nc3c(cc2O)-c2nc(cs2)C(=O)NC(C(C)O)C(=O)NC(=C(C)OC)c2nc(cs2)C(=O)NC2c4nc(cs4)C(=O)NC(COC(=O)c4c5c6c(cccc6n4O)COC(=O)C(OC4CC(C)(O)C(N(C)C)C(C)O4)C2OC5)c2nc-3cs2)n1)C(N)=O (stereo not shown) | – | – | cynomolgus monkey, plasma | intravenous, 9 mg/kg, single dose, infusion | – | Cmax | 34000 ng/mL |
| CC1(C)CC[C@]2(C(=O)O[C@@H]3O[C@H](CO)[C@@H](O)[C@H](O)[C@H]3O)CC[C@]3(C)C(=CC[C@@H]4[C@@]5(C)CC[C@H](O[C@@H]6O[C@H](C(=O)O)[C@@H](O)[C@H](O)[C@H]6O[C@@H]6O[C@H](CO)[C@@H](O)[C@H](O)[C@H]6O)C(C)(C)[C@@H]5CC[C@]43C)[C@@H]2C1 | SLC30A1 (Homo sapiens, UniProt Q9Y6M5) | binding | – | – | – | Kd | 28.9 µM |
| Nc1ncc(-c2cc(-c3cnn(CC(F)(F)F)c3)ncc2F)nc1C(=O)NC1CNCC(F)C1 (stereo not shown) | FGR | KINOMEscan | – | 1 µM | baseline: DMSO control | remaining binding | 86% |
| Cc1cccc2c1N(C(=O)n1ccnn1)CC2 | KAI2 (Arabidopsis thaliana, UniProt Q9SZU7, F26A) | ITC | – | F26A mutant, mean | – | Kd | 193 µM |
| CC(CC(=O)O)c1n[nH]c2nc(N)[nH]c(=O)c2c1=O (stereo not shown) | folP | binding, SPR | – | – | – | Kd | 0.0472 µM |
| COC1CN([C@H]2CC[C@H]([C@@]3(C)Oc4c(Cl)cc(C(=O)NCc5c(SC)cc(C)[nH]c5=O)c(C)c4O3)CC2)C1 | – | RNA-seq, refers to: PHLDA3 mouse homolog | mouse, HT-1376 xenograft, whole blood | dose not given | baseline: vehicle | log2 fold change | 1.28 |
| C=CC(=O)Nc1cccc(Cn2ncc3cnc(Nc4cnn(CCOC)c4)nc32)c1 | MYLK human | binding, KINOMEscan | – | 100 nM | lower = stronger binding | percent of control | 100% |
| CC[C@H](C)[C@H](N)C1=N[C@H](C(=O)N[C@@H](CC(C)C)C(=O)N[C@H](CCC(=O)O)C(=O)N[C@H](C(=O)N[C@H]2CCCCNC(=O)[C@H](CC(N)=O)NC(=O)[C@@H](CC(=O)O)NC(=O)[C@H](Cc3c[nH]cn3)NC(=O)[C@@H](Cc3ccccc3)NC(=O)[C@H]([C@@H](C)CC)NC(=O)[C@@H](CCCN)NC2=O)[C@@H](C)CC)CS1 | undecaprenyl pyrophosphate | binding, isothermal titration calorimetry | phosphatidylcholine lipid vesicles | pH 7.5, 25 °C, 0.3 mM zinc sulfate | – | Kd | 0.0255 ± 0.00701 µM |
| Cc1nn(-c2cccc(N)c2)c(=O)c2cnc(Nc3ccc(N4CCNCC4)cc3)nc12 | FLT3 (Homo sapiens, UniProt P36888) | kinase activity, inhibitor, SelectScreen kinase profiling | – | – | – | IC50 | > 10 µM |
| C=CC(=O)N1C[C@H](C)N(c2nc(OC[C@@]34CCCN3C[C@H](F)C4)nc3c(F)c(-c4ccc(F)c5sc(N)c(C#N)c45)c(C(F)(F)F)cc23)C[C@H]1C | GTPase KRas, GDP-bound (KRAS, Homo sapiens, UniProt P01116, G13D) | SPR | – | – | – | Kd | 0.00105 ± 0.00025 µM |
| CCc1nc2cc3ccccc3cc2cc1C(=O)N[C@@H](CCCCN)C(=O)N[C@@H](C/C=C\C[C@H](NC(=O)[C@H](CCCCN)NC(=O)c1cc2cc3ccccc3cc2nc1CC)C(=O)N1CCC[C@H]1C(=O)NCCCN)C(=O)N1CCC[C@H]1C(=O)NCCCN | (CAG)10 RNA | SPR | – | – | – | Kd | 0.504 µM |
| C=CC(=O)N1CC2(CCN(c3nc(OC4CCN(CCCOC)CC4)nc4c(OCC(F)(F)F)c(-c5c(C)ccc6[nH]ncc56)c(C5CC5)cc34)CC2)C1 | GTPase KRas, GDP-bound (KRAS, Homo sapiens, UniProt P01116) | microscale thermophoresis | – | – | – | Kd | 2.72 ± 1 µM |
| Cc1c[nH]c2nccc(-c3ccc(C(=O)N[C@@H]4c5c(F)cc(C(F)F)cc5C[C@@H]4O)cn3)c12 | GRK1 (Homo sapiens, UniProt Q15835) | binding, competition with immobilised ligand | – | – | – | Kd | 0.65 µM |
